Measurements gathered from unrelated publications.
Each line is one published result; not all experiments were run side by side. Several values in a cell are separate wells, animals, samples, runs or records. ± marks the error that the study gave.

CC(C)[C@@H]1NC(=O)CNC(=O)[C@H](CC(N)=O)NC(=O)[C@H](CCCNC(=N)N)NC(=O)[C@H](Cc2ccc(O)cc2)NC(=O)[C@H](C(C)C)NC(=O)[C@@H](NC(=O)[C@@H](NC(=O)[C@H](CC(N)=O)NC(=O)[C@H](Cc2c[nH]c3ccccc23)NC(=O)[C@H](C)NC(=O)[C@H](Cc2ccccc2)NC(=O)CNC(=O)[C@H](CCCCN)NC(=O)[C@H](Cc2ccccc2)NC(=O)[C@H](Cc2ccccc2)NC(=O)[C@H](CCCCN)NC(=O)OCC2c3ccccc3-c3ccccc32)C(C)C)CSSC[C@@H](C(=O)N[C@@H](Cc2c[nH]cn2)C(=O)N[C@@H](CCCNC(=N)N)C(=O)N[C@@H](CCCNC(=N)N)C(=O)N[C@@H](C)C(=O)N[C@@H](CC(N)=O)C(N)=O)NC(=O)[C@H](C(C)C)NC(=O)[C@H](CCCNC(=N)N)NC1=O — calcium (ICR mouse, blood; intramammary, 10 mg/kg, day 5, 3 d dosing): 1.34 ± 0.06 mmol/L
[2H]C([2H])([2H])C1(C([2H])([2H])[2H])NC(=O)N(c2ccc(F)c(C(C)(F)F)c2)C1=O — MTD (beagle dog, male and female; oral, single dose): > 150 mg/kg
O=C1NC2(CC2)COc2ncc(F)cc2[C@H]2COCCN2c2ccn3ncc1c3n2 — alkaline phosphatase activity (Sprague-Dawley rat, female, serum; oral, 5 mg/kg/day, 4 weeks daily, end of recovery period): 48.4 ± 12.4 U/L
CC(C)C[C@@H](NC(=O)[C@@H](CCCNC(=N)N)NC(=O)[C@@H](Cc1c[nH]cn1)NC(=O)[C@@H](Cc1c[nH]c2ccccc12)NC(=O)[C@@H](Cc1c[nH]cn1)NC(=O)[C@@H](Cc1ccccc1)NC(=O)[C@H](NC(=O)[C@@H](Cc1ccc(O)cc1)NC(=O)CNC(=O)CNC(=O)CCOCCOCCOCCNC(=O)CN1CCN(CC(=O)O)CCN(CC(=O)O)CC1)[C@H](C)O)C(=O)N[C@H](CC(N)=O)C(=O)N1CCC[C@@H]1C(=O)O [gallium-68 labelled] — absorbed dose (human female, from C57BL/6 mouse, breasts): 0.0103 ± 0.0001 mSv/MBq
COc1ccccc1-c1n[nH]c2nc(N[C@H]3CC[C@H](NS(=O)(=O)CC(C)C)CC3)ncc12 — relative abundance (bead binding, competition bead pull-down, measured: LINJ.28.2700; Leishmania donovani extract; 10 µM; baseline: vehicle): 1.49
CC[C@H](C)[C@H](NC(=O)[C@H](CO)NC(=O)[C@H](Cc1ccc(O)cc1)NC(=O)[C@H](Cc1ccc(O)cc1)NC(=O)[C@H](CC(N)=O)NC(=O)CNC(=O)[C@H](CO)NC(=O)[C@H](Cc1ccc(O)cc1)NC(=O)[C@H](CO)NC(=O)[C@H](CO)NC(=O)[C@H](CC(N)=O)NC(=O)COCCOCCNC(=O)CN1CCN(CC(=O)O)CCN(CC(=O)O)CCN(CC(=O)O)CC1)C(=O)N[C@@H](CC(C)C)C(N)=O [copper-64 labelled] — maximum metastasis uptake (dynamic PET; tamoxifen-induced PDAC mouse model, metastases; 2.5 min, CLDN4-expressing tumours): 20.2 %IA/cc
CC(=O)N[C@H](C(=O)N[C@@H](CCCC(=O)OC(C)(C)C)C(=O)N[C@@H](CCC1CCCCC1)C(=O)N[C@@H](CC(=O)O)C(=O)COC(=O)c1c(C)cccc1C)C(C)(C)C — blood concentration (C57BL/6N mouse, female, whole blood; intraperitoneal, dose not given, 0.25 h): 369 µM and 410 µM
C/C(=N\OCCCN1CCCCC1)c1ccc(C(F)(F)F)cc1 — plasma concentration (C57BL/6 mouse, plasma; oral, 10 mg/kg, 4 h): 86.7 ± 22.9 ng/mL
CC[C@H](C)[C@H](NC(=O)[C@H](CCCCN)NC(=O)CNC(=O)[C@H](CC(C)C)NC(=O)[C@H](Cc1ccccc1)NC(=O)[C@H](CCCCN)NC(=O)[C@H](CO)NC(=O)[C@H](Cc1ccccc1)NC(=O)[C@H](Cc1c[nH]c2ccccc12)NC(=O)[C@H](CCC(N)=O)NC(=O)[C@@H](NC(=O)[C@H](Cc1ccccc1)NC(=O)CCCCCNC(=O)CN1CCN(CC(=O)O)CCN(CC(=O)O)CCN(CC(=O)O)CC1)C(C)C)C(=O)N[C@@H](CCC(=O)O)C(=O)N1CCC[C@H]1C(=O)N[C@@H](CC(=O)O)C(=O)N[C@H](C(=O)N[C@@H](CO)C(=O)N[C@@H](CCC(N)=O)C(=O)N[C@H](C(=O)N[C@@H](CCC(N)=O)C(=O)N[C@@H](CC(=O)O)C(=O)N1CCC[C@H]1C(=O)N[C@@H](CC(N)=O)C(=O)N[C@@H](CC(=O)O)C(=O)N[C@@H](CCC(N)=O)C(=O)N[C@@H](Cc1ccc(O)cc1)C(=O)N[C@@H](CCC(=O)O)C(=O)N1CCC[C@H]1C(=O)N[C@@H](Cc1ccccc1)C(=O)O)C(C)C)C(C)C [copper-64 labelled] — tissue uptake (C57BL/6 mice, male, tumour-free, stomach; 0.5 h): 2.83 ± 0.9 %ID/g
CCCCCCCCCCCCCCCC(=O)N[C@@H](CCC(=O)NCCOCCOCCC(=O)NCCOCCOCCC(=O)NCCCC[C@H](NC(=O)[C@H](CC(=O)O)NC(=O)[C@H](CC(C)C)NC(=O)[C@H](Cc1ccc(O)cc1)NC(=O)[C@H](CCCCN)NC(=O)[C@H](CO)NC(=O)[C@H](Cc1ccc(O)cc1)NC(=O)[C@H](CC(=O)O)NC(=O)[C@H](CO)NC(=O)[C@@H](NC(=O)[C@H](Cc1ccccc1)NC(=O)[C@@H](NC(=O)CNC(=O)[C@H](CCC(N)=O)NC(=O)[C@@H](CO)NC(=O)[C@@H](N)Cc1c[nH]cn1)[C@@H](C)O)[C@@H](C)O)C(=O)N[C@@H](CCCNC(=N)N)C(=O)N[C@@H](CCCNC(=N)N)C(=O)N[C@@H](C)C(=O)N[C@@H](CCC(N)=O)C(=O)N[C@@H](CC(=O)O)C(=O)N[C@@H](Cc1ccccc1)C(=O)N[C@H](C(=O)N[C@@H](CCC(N)=O)C(=O)N[C@@H](Cc1c[nH]c2ccccc12)C(=O)N[C@@H](CC(C)C)C(=O)N[C@@H](CC(C)C)C(=O)N[C@@H](CC(N)=O)C(=O)N[C@H](C(=O)NCC(=O)NCC(=O)N1CCC[C@H]1C(=O)N[C@@H](CO)C(=O)N[C@@H](CO)C(=O)NCC(=O)N[C@@H](C)C(=O)N1CCC[C@H]1C(=O)N1CCC[C@H]1C(=O)N1CCC[C@H]1C(=O)N[C@@H](CO)C(N)=O)[C@@H](C)O)C(C)C)C(=O)O — creatinine (rhesus monkey, female; subcutaneous, 60 µg/kg once daily, 28 days): 53.6 ± 9.6 µmol/L
C[C@H](O)[C@@H](NC(=O)[C@H]1CCCN1C(=O)[C@@H](CCCCN)NC(=O)[C@@H](CO)NC(=O)[C@@H](Cc1ccc(O)cc1)NC(=O)[C@@H](CC(N)=O)NC(=O)CCOCCOCCOCCNC(=O)CN1CCN(CC(=O)O)CCN(CC(=O)O)CCN(CC(=O)O)CC1)C(=O)N[C@H](CC(=O)O)C(=O)N[C@H](CCCNC(=N)N)C(=O)N[C@H](CCC(N)=O)C(=O)N[C@H](Cc1ccc(O)cc1)C(=O)N[C@H](Cc1c[nH]cn1)C(=O)N[C@H](Cc1ccccc1)C(N)=O [gallium-68 labelled] — tissue uptake (BALB/c nude mice U-87 MG tumour, kidney; intravenous, 1.85 MBq, 0.08333 h, radiolabelled): 19.2 ± 1.95 %ID/g
CC(C)[C@H](NC(=O)[C@H](Cc1c[nH]c2ccccc12)NC(=O)[C@H](CCCNC(=N)N)NC(=O)[C@H](CCCNC(=N)N)NC(=O)[C@@H](NC(=O)[C@@H](NC(=O)[C@H](CCCNC(=N)N)NC(=O)[C@@H](NC(=O)[C@@H](NC(=O)[C@H](CCCNC(=N)N)NC(=O)[C@H](CCCNC(=N)N)NC(=O)[C@@H](NC(=O)[C@H](Cc1c[nH]c2ccccc12)NC(=O)[C@H](CCCNC(=N)N)NC(=O)[C@H](CCCNC(=N)N)NC(=O)[C@@H](NC(=O)[C@H](CCCNC(=N)N)NC(=O)[C@H](CCCNC(=N)N)NC(=O)[C@@H](NC(=O)[C@H](Cc1c[nH]c2ccccc12)NC(=O)[C@H](CCCNC(=N)N)NC(=O)[C@@H](N)CCCNC(=N)N)C(C)C)C(C)C)C(C)C)C(C)C)C(C)C)C(C)C)C(C)C)C(=O)N[C@@H](CCCNC(=N)N)C(=O)N[C@@H](CCCNC(=N)N)C(=O)O — organ weight (measured: lung; mice; intravenous, 30 mg/kg, after 2 doses, recovery; baseline: body weight): 0.96 ± 0.06%
CSCC[C@H](N)C(=O)N[C@@H](C)C(=O)N[C@@H](CCCNC(=N)N)C(=O)N[C@@H](CCCNC(=N)N)C(=O)N[C@@H](CC(=O)O)C(=O)N[C@@H](CCCCN)C(=O)N[C@H](C(=O)N[C@@H](CC(=O)O)C(=O)N[C@@H](Cc1ccccc1)C(=O)N[C@@H](C)C(=O)N[C@@H](CCCNC(=N)N)C(=O)N[C@@H](CCCNC(=N)N)C(=O)N[C@@H](CCCNC(=N)N)C(=O)N[C@@H](CCCNC(=N)N)C(=O)NCCCCCC(=O)NCCCCC(NC(=O)CCCCCNC(=O)[C@H](CCCNC(=N)N)NC(=O)[C@H](CCCNC(=N)N)NC(=O)[C@H](CCCNC(=N)N)NC(=O)[C@H](CCCNC(=N)N)NC(=O)[C@H](C)NC(=O)[C@H](Cc1ccccc1)NC(=O)[C@H](CC(=O)O)NC(=O)[C@@H](NC(=O)[C@H](CCCCN)NC(=O)[C@H](CC(=O)O)NC(=O)[C@H](CCCNC(=N)N)NC(=O)[C@H](CCCNC(=N)N)NC(=O)[C@H](C)NC(=O)[C@@H](N)CCSC)[C@@H](C)O)C(=O)NCCCCC(NC(=O)C(CCCCNC(=O)CCCCCNC(=O)[C@H](CCCNC(=N)N)NC(=O)[C@H](CCCNC(=N)N)NC(=O)[C@H](CCCNC(=N)N)NC(=O)[C@H](CCCNC(=N)N)NC(=O)[C@H](C)NC(=O)[C@H](Cc1ccccc1)NC(=O)[C@H](CC(=O)O)NC(=O)[C@@H](NC(=O)[C@H](CCCCN)NC(=O)[C@H](CC(=O)O)NC(=O)[C@H](CCCNC(=N)N)NC(=O)[C@H](CCCNC(=N)N)NC(=O)[C@H](C)NC(=O)[C@@H](N)CCSC)[C@@H](C)O)NC(=O)CCCCCNC(=O)[C@H](CCCNC(=N)N)NC(=O)[C@H](CCCNC(=N)N)NC(=O)[C@H](CCCNC(=N)N)NC(=O)[C@H](CCCNC(=N)N)NC(=O)[C@H](C)NC(=O)[C@H](Cc1ccccc1)NC(=O)[C@H](CC(=O)O)NC(=O)[C@@H](NC(=O)[C@H](CCCCN)NC(=O)[C@H](CC(=O)O)NC(=O)[C@H](CCCNC(=N)N)NC(=O)[C@H](CCCNC(=N)N)NC(=O)[C@H](C)NC(=O)[C@@H](N)CCSC)[C@@H](C)O)C(N)=O)[C@@H](C)O (stereo partly shown) — tissue distribution (C57BL/6 mouse female, brain; dose not given, 6 h; baseline: total): 0.16% and 0.32% and 0.37%
COc1ccccc1-c1n[nH]c2nc(NC3CCN(C(=O)Cc4ccc(F)cc4F)CC3)ncc12 — relative abundance (bead binding, competition bead pull-down, measured: LMJF.21.1090; Leishmania donovani axenic amastigote extract; 10 µM; baseline: vehicle): 0.95
CC(C)(C)C(=O)OCOP(=O)(OCOC(=O)C(C)(C)C)C1CCCN(O)C1=O (stereo not shown) — GI50 (LOX IMVI): 0.465 µM
CC[C@H](C)[C@@H]1NC(=O)[C@@H]2CCCN2C(=O)[C@H](CCSC)NC(=O)[C@H]([C@@H](C)O)NC(=O)[C@H](CCSC)NC(=O)[C@H](CC(=O)O)NC(=O)CNC(=O)[C@H](Cc2c[nH]cn2)NC(=O)[C@H](Cc2ccc(O)cc2)NC(=O)[C@@H](NC(=O)[C@H](Cc2c[nH]cn2)NC(=O)[C@@H](NC(=O)[C@H](CCC(N)=O)NC(=O)[C@@H](N)CO)C(C)C)CSSC[C@@H](C(=O)O)NC1=O — remaining compound (mouse, serum; 3 h): ~0.58%

Some of these lines once more:
CC(=O)N[C@H](C(=O)N[C@@H](CCCC(=O)OC(C)(C)C)C(=O)N[C@@H](CCC1CCCCC1)C(=O)N[C@@H](CC(=O)O)C(=O)COC(=O)c1c(C)cccc1C)C(C)(C)C — blood concentration (C57BL/6N mouse, female, whole blood; intraperitoneal, dose not given, 0.25 h): 369 µM and 410 µM
C/C(=N\OCCCN1CCCCC1)c1ccc(C(F)(F)F)cc1 — plasma concentration (C57BL/6 mouse, plasma; oral, 10 mg/kg, 4 h): 86.7 ± 22.9 ng/mL
